Measured values gathered from unrelated publications.
Each line is one published result; not all experiments were run side by side.
Cell line: NCI/ADR-RES

SMILES	test	system	conditions	quantity	value
C#C[C@@]1(O)[C@@H](CO)O[C@@H](n2cc(Br)c3c(N)ncnc32)[C@@H]1O	cell growth, SRB			TGI	1.02 µM
S=C([S][Au-][P+](CCCCCC[P+]([Au-][S]C(=S)n1cccn1)(c1ccccc1)c1ccccc1)(c1ccccc1)c1ccccc1)n1cccn1	cell growth, NCI-60 screen		breast cancer	log TGI	> -4 log10 M
CCCCN1CCN(c2ccc3[nH]c(-c4ccc5[nH]c(-c6ccc(C(F)(F)F)cc6)nc5c4)nc3c2)CC1	cell growth, NCI-60 SRB		10 µM, 48 h	growth percent	54.8%
O=C1NC(=NCc2cccs2)S/C1=C\c1ccc2ncccc2c1	cytotoxicity, MTS	NCI60 panel	ovarian cancer	IC50	3.67 µM
Cc1cc(C)n(C(=S)[S][Au][PH](CCCCCC[PH]([Au][S]C(=S)n2nc(C)cc2C)(c2ccccc2)c2ccccc2)(c2ccccc2)c2ccccc2)n1	cell growth, NCI-60 screen		breast cancer	log TGI	> -4 log10 M
CCCCN1CCN(c2ccc3nc(-c4ccc5nc(-c6cc(OC)ccc6OC)[nH]c5c4)[nH]c3c2)CC1	cell growth, NCI-60 SRB		10 µM, 48 h	growth percent	105%
C#C[C@@]1(O)[C@@H](CO)O[C@@H](n2ccc3c(N)ncnc32)[C@@H]1O	cell growth, SRB			TGI	7.28 µM
O=C1NCCc2[nH]c(-c3ccncc3)cc21	cytotoxicity, MTS	NCI60 panel	ovarian cancer	IC50	1.44 µM
CCN(CC)c1ccc(C=NNC(=O)CSc2nc3ccccc3c(=O)n2Cc2ccc(S(N)(=O)=O)cc2)c(O)c1	cell growth		NCI five-dose screen	TGI	> 100 µM
CCCN1CCN(c2ccc3[nH]c(-c4ccc5[nH]c(-c6ccc(C(F)(F)F)cc6)nc5c4)nc3c2)CC1	cell growth, NCI-60 SRB		10 µM, 48 h	growth percent	74%
Cn1cncc1C1=CN(c2ncnc3[nH]cnc23)CCS1			ovarian cancer cell line	GI50	56.2 µM

Repeated from above:
SMILES	test	system	conditions	quantity	value
S=C([S][Au-][P+](CCCCCC[P+]([Au-][S]C(=S)n1cccn1)(c1ccccc1)c1ccccc1)(c1ccccc1)c1ccccc1)n1cccn1	cell growth, NCI-60 screen		breast cancer	log TGI	> -4 log10 M
